Measured values collected from several papers.
Each numbered part is a random draw from the data of one study; scales do not carry over between parts.

Set 1
Target: Ras GTPase-activating protein-binding protein 1, C-terminal RGG region (G3BP1, Homo sapiens, UniProt Q13283)
Sequence of UniProt Q13283 (whole entry, looked up): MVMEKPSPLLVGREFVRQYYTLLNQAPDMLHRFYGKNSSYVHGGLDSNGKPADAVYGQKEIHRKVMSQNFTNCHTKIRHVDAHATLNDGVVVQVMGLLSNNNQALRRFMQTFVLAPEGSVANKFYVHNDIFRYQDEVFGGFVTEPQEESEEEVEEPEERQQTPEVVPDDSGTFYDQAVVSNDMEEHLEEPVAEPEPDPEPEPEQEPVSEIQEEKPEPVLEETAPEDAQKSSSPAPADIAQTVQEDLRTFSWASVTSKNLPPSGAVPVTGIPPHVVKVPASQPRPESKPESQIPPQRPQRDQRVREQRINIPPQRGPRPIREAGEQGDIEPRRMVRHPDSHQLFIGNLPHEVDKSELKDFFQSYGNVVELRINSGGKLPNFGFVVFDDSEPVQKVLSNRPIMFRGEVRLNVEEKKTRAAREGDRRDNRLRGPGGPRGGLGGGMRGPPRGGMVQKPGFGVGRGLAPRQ
Method: RNA Bind-n-Seq
Molecule type: RNA
Matrix: in vitro
Concentration: 1 µM
Setting: whole 134-nt RNA, ends assumed
Together with: 150 mM KCl
Relative to: input library
Direction: higher = stronger binding
With `GGGAGUUCUACAGUCCGACGAUCCACAGACAACACGCACCCACACAGACACAGAGGGAAGGGGUUGGGAUGGGGACAGGGUAAACAGCAGGGCGGGGUAGGACCCCAGCCCCUUGGAAUUCUCGGGUGUCAAGG` the log2 enrichment was -0.429.
With `GGGAGUUCUACAGUCCGACGAUCAGUCCUGUGCUACACAUCGUAUGUACCGAAUCGGUUUUUGGUUUUUGGGGUUUUUGGAAAGUAUUAUGUUACGCCGUUCGGAUCUGCACUUGGAAUUCUCGGGUGUCAAGG` the log2 enrichment was -1.41.
For `GGGAGUUCUACAGUCCGACGAUCCAAGUCCUGUGCUACACAUCGUAUGUACCGAAUCGGGGUUUGGGUUUGGUUUGGGGAAAGUAUUAUGUUACGCCGUUCGGAUCUGCACUUUGGAAUUCUCGGGUGUCAAGG`, the log2 enrichment was -0.456.

Set 2
Target: Histone acetyltransferase KAT6A, winged helix 2, GST fusion (KAT6A, Homo sapiens, UniProt Q92794, residues 85-181)
Method: protein binding microarray
Molecule type: double-stranded DNA, one strand shown
Matrix: in vitro
Concentration: not given
Setting: 8-mer, flanks averaged, mean of 2 arrays, mostly near background
Relative to: not given
Direction: higher = stronger binding
Construct (chain): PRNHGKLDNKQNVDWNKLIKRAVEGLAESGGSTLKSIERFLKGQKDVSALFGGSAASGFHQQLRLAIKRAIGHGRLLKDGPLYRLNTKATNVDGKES
For `CGGTCAAA`, the E-score was -0.0185.
With `ACCTAAGA` the E-score was -0.162.
`GTTATGAA` has an E-score of -0.142.
`GAAACAAA` gave an E-score of 0.0387.
With `AGGAGCCG` the E-score was 0.0909.
The E-score of `CTTTGTGC` is reported as 0.0846.
With `ACATAACG` the E-score was -0.0379.
`TCGTAGAA` gave an E-score of -0.0352.

Set 3
Target: RNA binding protein fox-1 homolog 2, RRM domain, GST-SBP tag (RBFOX2, Homo sapiens, UniProt O43251-10, residues 100-194)
Method: RNA Bind-n-Seq
Molecule type: RNA
Matrix: in vitro
Concentration: 365 nM
Setting: natural RNA segment, single round, ends assumed
Relative to: no-protein control
Direction: higher = stronger binding
All sequences stand within: GGGAGUUCUACAGUCCGACGAUC … UGGAAUUCUCGGGUGCCAA
Target sequence (chain): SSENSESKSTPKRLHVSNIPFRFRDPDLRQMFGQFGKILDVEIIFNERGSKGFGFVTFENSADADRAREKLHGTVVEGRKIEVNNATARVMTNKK
`GUACCCUCUUGUCAAAAAGGCAUACAUUCAUAAUUGUACAUUCAGCAUUGUAAAUAAUCUUAUGAAACCUUUUUUGAUUGAAGCUAUUCAAAAUAAAAAUUUUAAUGAAU` — result for “RBNS enrichment (R)”: 0.862.
`GCAGGGCAGAGUUCAGGUCCACUGGGCUGAGUGUCCCCUUGGGCCCAUGGCCCAGUCACUCAGGGGCGAGUUUCUUUUCUAACAUAGCCCUUUCUUUGCCAUGAGGCCAU` — result for “RBNS enrichment (R)”: 0.285.
Under “RBNS enrichment (R)”, `CCUUGUGCUUCGGUUUCUAAGGGCCCUGUGGUGUGCAGUGAGCUCCCUUCCCGGCACGUGGAUUUUUUUUUUCAGUUUGUUAGAAGCCAGUGUAUGUCUUAAGCCUCUGC` is recorded as 0.522.
For `GGAUUAACAGCCAUUUAUAUGGACUUAUGUCUCUUAAUGCACAAAGAAGCAGAUAUCUCGAAGGAGCUUACACAAGAACCACAAUUACUAGAUCAUGAUAUACUUGGAAA`, “RBNS enrichment (R)” read 0.44.
`AUGAUACAGGGCACCACGGAGAGAAAGUAGAACCAUUUCACUCCUGGGAAGAUGGGGUAUUUCCCACUUCCAGCAACGAAAUAACAAAUGAAAAGUUGCAUACUUAUUGA` — result for “RBNS enrichment (R)”: 0.892.
`AACGUUUCCCUCAGCUCUGUCACCAACUCACUUCUCUCGGCUUCGUUGUCUGUAAAUUGGAUGAAAAGAGCUCUAAUGCCUUUCAGGCUCUUAGAAGCCAUAGAUUUGGA`: “RBNS enrichment (R)” 0.32.
`GGCAAGGUAGCGUUCCCCAAUCUGAAUACCUGCAGGCUCCCACAUGAGGGAGAGGGCAGACUCAGGUGGGAAGAUGUGCCAUGCGUAAGGCAUCAACGUGUAUCUGUGGG` — result for “RBNS enrichment (R)”: 0.364.

Mixed results
For `PhoQ, residues 284 288 289 292 302 303 SACGEM`, the fold induction was 19.8 (PhoP, residues 12 14 15 18 19 NHFIF (Escherichia coli, UniProt P23836); Sort-seq, refers to: YFP reporter; E. coli; PhoQ-PhoP variant library, together with: 10 µM Mg2+; relative to: high Mg2+ state, higher = stronger signaling).

A few entries again (set 3):
`AACGUUUCCCUCAGCUCUGUCACCAACUCACUUCUCUCGGCUUCGUUGUCUGUAAAUUGGAUGAAAAGAGCUCUAAUGCCUUUCAGGCUCUUAGAAGCCAUAGAUUUGGA`: “RBNS enrichment (R)” 0.32.
